# Experimental data pooled from the literature.
# Numbered parts are unrelated; each lists some results of a single study.
# Chain of UniProt Q9P289 (whole entry, looked up): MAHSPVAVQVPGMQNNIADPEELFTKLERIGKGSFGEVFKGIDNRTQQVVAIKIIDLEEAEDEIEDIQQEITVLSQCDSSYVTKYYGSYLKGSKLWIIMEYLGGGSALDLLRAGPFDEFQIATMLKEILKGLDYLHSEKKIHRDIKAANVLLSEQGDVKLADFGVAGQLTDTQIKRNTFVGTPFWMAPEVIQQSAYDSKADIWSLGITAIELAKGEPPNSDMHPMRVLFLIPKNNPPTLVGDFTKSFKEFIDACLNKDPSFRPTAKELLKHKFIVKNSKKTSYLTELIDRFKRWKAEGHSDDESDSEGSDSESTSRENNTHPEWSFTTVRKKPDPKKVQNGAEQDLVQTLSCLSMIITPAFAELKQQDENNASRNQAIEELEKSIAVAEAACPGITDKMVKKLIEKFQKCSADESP
# Chain of UniProt O96017 (whole entry, looked up): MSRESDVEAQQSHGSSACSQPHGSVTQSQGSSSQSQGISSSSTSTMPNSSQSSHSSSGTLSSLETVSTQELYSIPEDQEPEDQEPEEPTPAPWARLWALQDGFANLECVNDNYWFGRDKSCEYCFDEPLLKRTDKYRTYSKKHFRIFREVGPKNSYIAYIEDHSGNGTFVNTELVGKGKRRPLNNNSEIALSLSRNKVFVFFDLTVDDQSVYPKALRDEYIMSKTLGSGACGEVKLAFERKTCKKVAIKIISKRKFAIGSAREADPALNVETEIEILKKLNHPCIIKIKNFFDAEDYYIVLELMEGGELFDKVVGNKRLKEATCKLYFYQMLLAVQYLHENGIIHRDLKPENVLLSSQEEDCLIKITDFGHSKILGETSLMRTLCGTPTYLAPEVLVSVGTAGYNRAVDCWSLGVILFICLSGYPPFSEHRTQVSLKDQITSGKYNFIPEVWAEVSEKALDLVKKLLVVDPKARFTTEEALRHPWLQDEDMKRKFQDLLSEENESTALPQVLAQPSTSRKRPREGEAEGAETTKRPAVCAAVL
# Chain of UniProt Q13882 (whole entry, looked up): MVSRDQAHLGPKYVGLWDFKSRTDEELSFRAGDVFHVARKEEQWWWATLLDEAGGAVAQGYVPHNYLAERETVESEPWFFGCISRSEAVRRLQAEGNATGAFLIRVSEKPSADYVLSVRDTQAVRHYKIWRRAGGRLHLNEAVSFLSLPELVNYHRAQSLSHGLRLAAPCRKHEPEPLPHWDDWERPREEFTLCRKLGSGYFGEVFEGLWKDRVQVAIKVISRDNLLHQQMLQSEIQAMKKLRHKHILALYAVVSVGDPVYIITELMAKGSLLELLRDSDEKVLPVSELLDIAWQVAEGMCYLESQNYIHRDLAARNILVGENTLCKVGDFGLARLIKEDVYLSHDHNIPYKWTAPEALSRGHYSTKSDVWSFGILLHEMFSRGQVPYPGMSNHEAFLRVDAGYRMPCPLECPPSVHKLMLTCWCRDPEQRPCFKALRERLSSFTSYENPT
# Chain of UniProt P53350 (whole entry, looked up): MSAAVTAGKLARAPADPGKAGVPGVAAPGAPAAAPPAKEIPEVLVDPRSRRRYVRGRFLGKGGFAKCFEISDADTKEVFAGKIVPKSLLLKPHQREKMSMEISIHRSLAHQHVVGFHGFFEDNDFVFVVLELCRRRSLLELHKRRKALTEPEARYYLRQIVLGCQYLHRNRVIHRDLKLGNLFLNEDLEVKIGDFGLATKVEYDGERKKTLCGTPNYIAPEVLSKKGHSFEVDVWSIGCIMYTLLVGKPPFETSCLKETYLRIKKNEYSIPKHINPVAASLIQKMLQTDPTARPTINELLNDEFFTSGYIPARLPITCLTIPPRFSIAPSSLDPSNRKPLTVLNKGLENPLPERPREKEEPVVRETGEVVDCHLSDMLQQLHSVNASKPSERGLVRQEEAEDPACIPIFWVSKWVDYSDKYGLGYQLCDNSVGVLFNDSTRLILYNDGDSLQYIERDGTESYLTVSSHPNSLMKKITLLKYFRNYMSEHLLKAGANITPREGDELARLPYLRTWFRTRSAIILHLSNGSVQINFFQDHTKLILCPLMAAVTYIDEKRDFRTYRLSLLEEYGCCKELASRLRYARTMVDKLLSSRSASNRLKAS
# Chain of UniProt Q32MK0 (whole entry, looked up): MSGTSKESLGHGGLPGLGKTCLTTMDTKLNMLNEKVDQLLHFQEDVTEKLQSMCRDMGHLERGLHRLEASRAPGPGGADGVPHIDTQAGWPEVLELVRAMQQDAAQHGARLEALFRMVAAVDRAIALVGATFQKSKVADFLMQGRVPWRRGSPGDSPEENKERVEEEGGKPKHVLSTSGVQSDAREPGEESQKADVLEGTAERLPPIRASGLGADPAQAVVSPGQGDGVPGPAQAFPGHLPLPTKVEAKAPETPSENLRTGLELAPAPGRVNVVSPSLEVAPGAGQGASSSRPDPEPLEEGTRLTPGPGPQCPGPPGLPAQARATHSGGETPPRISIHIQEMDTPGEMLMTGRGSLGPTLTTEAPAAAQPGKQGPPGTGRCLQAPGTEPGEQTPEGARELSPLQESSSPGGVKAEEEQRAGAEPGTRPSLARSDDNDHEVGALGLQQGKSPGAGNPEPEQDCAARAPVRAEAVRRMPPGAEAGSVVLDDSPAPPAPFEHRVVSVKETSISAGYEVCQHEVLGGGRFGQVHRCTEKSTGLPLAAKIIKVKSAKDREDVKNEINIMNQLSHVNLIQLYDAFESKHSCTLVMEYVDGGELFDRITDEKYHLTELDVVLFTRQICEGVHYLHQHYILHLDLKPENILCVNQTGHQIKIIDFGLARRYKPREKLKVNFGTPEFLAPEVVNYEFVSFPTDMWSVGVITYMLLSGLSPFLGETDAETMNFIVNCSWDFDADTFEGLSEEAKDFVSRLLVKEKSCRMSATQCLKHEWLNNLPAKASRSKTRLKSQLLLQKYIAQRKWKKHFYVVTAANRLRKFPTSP
# Chain of UniProt Q13163 (whole entry, looked up): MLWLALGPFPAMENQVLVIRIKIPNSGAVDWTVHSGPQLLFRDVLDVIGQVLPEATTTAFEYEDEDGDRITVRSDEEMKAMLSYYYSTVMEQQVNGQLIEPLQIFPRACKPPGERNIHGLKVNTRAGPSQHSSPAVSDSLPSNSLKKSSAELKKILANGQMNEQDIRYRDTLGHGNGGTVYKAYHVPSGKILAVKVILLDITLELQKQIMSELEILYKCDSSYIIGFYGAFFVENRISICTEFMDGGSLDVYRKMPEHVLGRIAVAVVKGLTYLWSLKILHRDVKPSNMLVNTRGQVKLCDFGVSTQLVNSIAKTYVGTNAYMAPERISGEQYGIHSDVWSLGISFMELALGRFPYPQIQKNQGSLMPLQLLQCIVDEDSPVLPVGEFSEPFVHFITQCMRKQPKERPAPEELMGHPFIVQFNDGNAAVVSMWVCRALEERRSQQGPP
# Chain of UniProt P29597 (whole entry, looked up): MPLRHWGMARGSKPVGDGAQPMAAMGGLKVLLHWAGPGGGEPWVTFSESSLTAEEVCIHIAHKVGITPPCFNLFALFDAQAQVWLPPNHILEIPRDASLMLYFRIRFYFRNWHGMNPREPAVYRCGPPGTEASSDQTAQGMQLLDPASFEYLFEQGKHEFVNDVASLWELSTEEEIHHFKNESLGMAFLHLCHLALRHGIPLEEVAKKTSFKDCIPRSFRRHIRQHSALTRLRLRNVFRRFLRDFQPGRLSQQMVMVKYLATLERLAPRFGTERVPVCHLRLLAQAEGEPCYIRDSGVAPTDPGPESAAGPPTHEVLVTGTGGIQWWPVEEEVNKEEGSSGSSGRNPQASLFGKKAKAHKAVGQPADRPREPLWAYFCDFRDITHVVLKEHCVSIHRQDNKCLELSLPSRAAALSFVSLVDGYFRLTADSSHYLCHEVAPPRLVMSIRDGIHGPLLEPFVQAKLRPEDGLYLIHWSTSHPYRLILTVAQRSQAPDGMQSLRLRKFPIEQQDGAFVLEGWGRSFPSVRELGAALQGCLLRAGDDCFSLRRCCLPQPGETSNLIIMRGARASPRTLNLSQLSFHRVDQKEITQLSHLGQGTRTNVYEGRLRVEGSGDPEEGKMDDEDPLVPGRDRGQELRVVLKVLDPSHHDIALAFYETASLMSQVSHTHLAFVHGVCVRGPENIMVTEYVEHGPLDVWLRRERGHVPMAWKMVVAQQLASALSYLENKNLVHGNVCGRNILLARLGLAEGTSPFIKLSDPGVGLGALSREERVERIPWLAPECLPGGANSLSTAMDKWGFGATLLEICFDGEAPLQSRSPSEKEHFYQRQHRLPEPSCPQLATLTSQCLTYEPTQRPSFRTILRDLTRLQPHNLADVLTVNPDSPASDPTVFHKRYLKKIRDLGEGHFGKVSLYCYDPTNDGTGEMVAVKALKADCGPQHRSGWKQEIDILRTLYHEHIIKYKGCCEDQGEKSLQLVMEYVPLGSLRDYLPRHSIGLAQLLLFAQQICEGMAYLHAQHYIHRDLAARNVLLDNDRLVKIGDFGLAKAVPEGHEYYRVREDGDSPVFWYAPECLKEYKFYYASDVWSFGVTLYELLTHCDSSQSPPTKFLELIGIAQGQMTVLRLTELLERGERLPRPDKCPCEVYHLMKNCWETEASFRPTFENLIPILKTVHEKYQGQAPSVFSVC

# Study 1
# Structure (SMILES): O=C(NCc1ncc(C(F)(F)F)cc1Cl)c1ccc2c(c1)C1(CCS(=O)(=O)CC1)[C@@H](C1CC1)N2S(=O)(=O)c1ccc(F)cc1
# Observed: cell-free assay
# Method: competition with immobilised ligand
# Concentration: 1 µM
target,remaining binding [%]
"DDR2 (Homo sapiens, UniProt Q16832)",67
"EGFR (Homo sapiens, UniProt P00533, del746-750)",69
"MAP2K5 (Homo sapiens, UniProt Q13163)",90
"CHUK (Homo sapiens, UniProt O15111)",84
"Non-receptor tyrosine-protein kinase TYK2, JH1 (TYK2, Homo sapiens, UniProt P29597)",46
"Ribosomal protein S6 kinase alpha-3, N-terminal kinase domain (RPS6KA3, Homo sapiens, UniProt P51812)",57
"PLK1 (Homo sapiens, UniProt P53350)",82
"FGFR1 (Homo sapiens, UniProt P11362)",100
"RPS6KB1 (Homo sapiens, UniProt P23443)",72
"MYLK3 (Homo sapiens, UniProt Q32MK0)",76
"Ribosomal protein S6 kinase alpha-6, N-terminal kinase domain (RPS6KA6, Homo sapiens, UniProt Q9UK32)",84
"CHEK2 (Homo sapiens, UniProt O96017)",97
"PTK6 (Homo sapiens, UniProt Q13882)",94
"EGFR (Homo sapiens, UniProt P00533, L861Q)",76
"STK26 (Homo sapiens, UniProt Q9P289)",82

# Study 2
# Cell line: mouse MPNST tumor cells
# Method: high-content immunofluorescence imaging
# Measured: nuclear SOX9
# Concentration: 10 µM
# Time: 12 h
# Notes: mean of 2 replicates
# Baseline: DMSO control
# Reading: higher = more nuclear SOX9
Structure (SMILES),nuclear SOX9 intensity
CC(C)(S)C(N)C(=O)O (racemic),113 % of DMSO
Cc1cccc(C)c1NC(=O)C1CCCCN1C (stereo not drawn),92.6 % of DMSO
COc1cc(Oc2ccnc3cc(OC)c(OC)cc23)ccc1NC(=O)NC(C)c1nccs1 (stereo not drawn),109 % of DMSO
CCOc1nc2c(N)ncnc2n1CC,103 % of DMSO
CC(C)NCC(O)c1ccc(NS(C)(=O)=O)cc1 (stereo not drawn),138 % of DMSO

# Study 3
# SMILES: CC(C)n1cnc(-c2ccc(F)cc2)c1-c1ncc(C(=O)Nc2ccc(N3CCN(C)CC3)cc2)[nH]1
# Method: Phase 2a trial
# Species: idiopathic pulmonary fibrosis patients
test,conditions,patients with adverse events [%]
measured: reticulocyte count increased,"30 mg once daily, grade 5 maximum intensity",0
measured: tri-iodothyronine increased,"dose not given, grade 3 maximum intensity, all arms",0
measured: gamma-glutamyltransferase increased,"60 mg once daily, grade 4 maximum intensity",0
measured: blood bilirubin increased,"30 mg once daily, grade 4 maximum intensity",0
measured: gamma-glutamyltransferase increased,"30 mg once daily, grade 2 maximum intensity",0
measured: muscular weakness,"30 mg once daily, grade 2 maximum intensity",0
measured: weight increased,"60 mg once daily, grade 3 maximum intensity",0
measured: back pain,"30 mg once daily, grade 5 maximum intensity",0
measured: eye disorders (SOC),"60 mg once daily, grade 5 maximum intensity",0
measured: tri-iodothyronine increased,"60 mg once daily, grade 3 maximum intensity",0
measured: blood creatine phosphokinase increased,"30 mg once daily, grade 2 maximum intensity",0

# Study 4
# Target: Tyrosine-protein kinase Lyn, isoform B (LYN, Homo sapiens, UniProt P07948)
# Chain of UniProt P07948 (whole entry, looked up): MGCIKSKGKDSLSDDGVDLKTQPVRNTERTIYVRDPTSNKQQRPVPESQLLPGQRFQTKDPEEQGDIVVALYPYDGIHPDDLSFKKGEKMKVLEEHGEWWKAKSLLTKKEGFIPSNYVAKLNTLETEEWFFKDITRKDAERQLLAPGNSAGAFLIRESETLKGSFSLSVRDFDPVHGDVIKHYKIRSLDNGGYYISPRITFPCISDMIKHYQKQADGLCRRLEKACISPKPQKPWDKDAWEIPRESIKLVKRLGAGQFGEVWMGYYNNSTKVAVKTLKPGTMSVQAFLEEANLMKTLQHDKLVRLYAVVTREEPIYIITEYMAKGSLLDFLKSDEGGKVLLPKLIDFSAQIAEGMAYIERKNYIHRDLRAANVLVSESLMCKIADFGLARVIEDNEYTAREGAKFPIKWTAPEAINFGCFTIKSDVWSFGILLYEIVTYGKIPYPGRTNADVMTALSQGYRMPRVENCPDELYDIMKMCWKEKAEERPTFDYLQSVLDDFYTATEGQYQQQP
# Observed: enzyme activity
# Action: inhibitor
# Concentration: 0.5 µM
# Baseline: control
Structure (SMILES),remaining activity
Oc1ccc(-c2nc(-c3ccncc3)c(-c3ccc(F)cc3)[nH]2)cc1,98.4%
COc1ccc(OC)c2c(=S)c3ccccc3[nH]c12,96.9%
N#CCCc1ccc2c(c1)-c1[nH]c3ccc([N+](=O)[O-])cc3c1CC(=O)N2,77.7%
CO[C@H]1C[C@@H]2CC[C@@H](C)[C@@](O)(O2)C(=O)C(=O)N2CCCC[C@H]2C(=O)O[C@H]([C@H](C)C[C@@H]2CC[C@@H](O)[C@H](OC)C2)CC(=O)[C@H](C)/C=C(\C)[C@@H](O)[C@@H](OC)C(=O)[C@H](C)C[C@H](C)/C=C/C=C/C=C/1C,105%
Nc1ccc2ncnc(NCCc3ccc(Oc4ccccc4)cc3)c2c1,101%
CCOC(=O)c1c(C)[nH]c(/C=C2\C(=O)Nc3ccccc32)c1C,98.4%
Cn1c2ccccc2c2c3c(c4c5ccccc5n(CCC#N)c4c21)CNC3=O,90.3%
O=C1NC(=O)C(c2cn(CCCn3ccnc3)c3ccccc23)=C1Nc1ccccc1,103%
COc1cc2nccc(Oc3ccc(NC(=S)NC(=O)c4ccccc4C)cc3)c2cc1OC,31.8%
COc1cc2ncnc(Nc3ccc(F)c(Cl)c3)c2cc1OCCCN1CCOCC1,67.8%
Nc1[nH]nc2nc3ccccc3nc12,108%
O=c1c2ccccc2[nH]c(=S)n1CCN1CCC(=C(c2ccc(F)cc2)c2ccc(F)cc2)CC1,105%
Nc1ncnc2n[nH]c(Nc3ccc(F)cc3)c12,90.3%
N#CC(C#N)=C(N)/C(C#N)=C/c1ccc(O)cc1,102%
CN(C)c1ccc(C=C2C(=O)Nc3ccccc32)cc1,97.8%
O=C1NC(=O)c2cc(Nc3ccc(F)cc3)c(Nc3ccc(F)cc3)cc21,97.8%
OCC(O)CCON=C1C(c2c(O)[nH]c3ccccc23)=Nc2ccccc21 (stereo not drawn),45.5%
